Measured values collected from several papers.

SMILES | target or system | assay | test system | setting | scale | quantity | value
CCN1/C(=C/C=C2\CCCC(/C=C/C3=[N+](CC)c4ccccc4C3(C)C)=C2NCCCCCCCCN2CCC(Nc3nc4ccccc4n3Cc3ccc(F)cc3)CC2)C(C)(C)c2ccccc21 | U-87 MG | item: MARVELD1 mRNA | – | concentration not given | reference: DMSO | log2 fold change | -1.02
CC[C@H](C)[C@@H]1NC(=O)[C@H](CCCNC(=N)N)NC(=O)[C@H](CO)NC(=O)[C@H](CCC(=O)O)NC(=O)[C@H](CC(=O)O)NC(=O)CNC(=O)CNC(=O)[C@H]([C@@H](C)O)NC(=O)[C@H](Cc2ccccc2)NC(=O)[C@H](CO)NC(=O)[C@H]([C@@H](C)O)NC(=O)[C@H](C)NC(=O)[C@@H]2CSSC[C@@H](C(=O)N[C@@H](Cc3ccc(O)cc3)C(=O)N[C@@H](Cc3ccccc3)C(=O)N[C@H](C(=O)N[C@H](C(=O)NCC(=O)O)[C@@H](C)O)[C@@H](C)O)NC(=O)[C@H]([C@@H](C)O)NC(=O)[C@H](CSSC[C@H](NC(=O)[C@H](CCC(=O)O)NC(=O)[C@H](CO)NC(=O)[C@H](CCCCN)NC(=O)[C@H](Cc3ccc(O)cc3)NC(=O)[C@@H]3CCCN3C(=O)[C@H](Cc3ccccc3)NC(=O)[C@H](CCCCN)NC(=O)[C@H](CCCNC(=N)N)NC(=O)[C@H](CCCCN)NC(=O)[C@H](CCCCN)NC(=O)[C@H](Cc3ccc(O)cc3)NC(=O)[C@@H]3CCCN3C(=O)[C@@H](NC(=O)[C@H](CC(=O)O)NC(=O)[C@H](CCCCN)NC(=O)[C@H](CCCCN)NC(=O)[C@@H](NC(=O)[C@@H](NC(=O)[C@@H](N)CCC(=O)O)C(C)C)[C@@H](C)CC)[C@@H](C)O)C(=O)N[C@@H](CC(C)C)C(=O)N[C@@H](CCCCN)C(=O)N[C@@H](C)C(=O)N2)NC(=O)[C@H](CCCCN)NC(=O)[C@H](Cc2ccccc2)NC(=O)[C@H](Cc2ccccc2)NC(=O)CNC(=O)[C@@H]2CCCN2C(=O)[C@H](CCCCN)NC(=O)CNC(=O)[C@H](CCC(=O)O)NC(=O)[C@H](CCC(N)=O)NC1=O | KCNQ2 (Homo sapiens, UniProt O43526) | ion current, inhibitor, patch clamp | – | – | – | IC50 | 2700 nM
CC[C@H](C)[C@H](NC(=O)[C@@H]1CCCN1C(=O)[C@H](CCC(=O)O)NC(=O)[C@H](CCC(N)=O)NC(=O)[C@H](CCCCN)NC(=O)[C@H](CCC(N)=O)NC(=O)[C@@H]1CCCN1C(=O)[C@@H]1CCCN1C(=O)[C@@H](NC(=O)[C@@H](NC(=O)[C@@H](NC(=O)[C@H](CCC(=O)O)NC(=O)[C@@H](NC(=O)CNC(=O)[C@H](CO)NC(=O)[C@H](CCCNC(=N)N)NC(=O)[C@H](Cc1ccccc1)NC(=O)[C@H](CO)NC(=O)[C@H](CCC(=O)O)NC(=O)[C@H](CCC(=O)O)NC(=O)[C@@H]1CCCN1C(=O)[C@@H]1CCCN1C(=O)[C@H](C)NC(=O)[C@@H](NC(=O)[C@@H]1CCCN1C(=O)[C@H](CCC(=O)O)NC(=O)[C@@H]1CCCN1C(=O)[C@H](CCCNC(=N)N)NC(=O)[C@@H](N)CO)[C@@H](C)O)C(C)C)[C@@H](C)O)[C@@H](C)O)[C@@H](C)O)C(=O)N[C@@H](CC(=O)O)C(=O)N[C@@H](CCCCN)C(=O)N[C@@H](CCC(=O)O)C(=O)N[C@@H](CC(C)C)C(=O)N[C@@H](Cc1ccc(O)cc1)C(=O)N1CCC[C@H]1C(=O)N[C@@H](CC(C)C)C(=O)N[C@H](C(=O)N[C@@H](CO)C(=O)N[C@@H](CC(C)C)C(=O)N[C@@H](CCCNC(=N)N)C(=O)N[C@@H](CO)C(=O)N[C@@H](CC(C)C)C(=O)N[C@@H](Cc1ccccc1)C(=O)NCC(=O)N[C@@H](CC(N)=O)C(=O)N[C@@H](CC(=O)O)C(=O)N1CCC[C@H]1C(=O)N[C@@H](CO)C(=O)N[C@@H](CO)C(=O)N[C@@H](CCC(N)=O)C(=O)O)[C@@H](C)O | IDE (Homo sapiens, UniProt P14735, E111Q) | NMR relaxation dispersion | – | 500 µM, 2 °C | – | bound state lifetime | ~140 µs
Cc1cccc(NC(=O)C[S+]([O-])c2nc(-c3ccccc3)cn2-c2ccc(Cl)cc2)c1C (centres unmarked) | Spike glycoprotein, RBD; with ACE2 (Severe acute respiratory syndrome coronavirus 2, UniProt P0DTC2) | binding, inhibitor | – | – | – | IC50 | no inhibition
COc1ccc(NC(=O)c2ccc(-c3ccc(C(=N)N)cc3C)cc2)cc1N1CCN(C)CC1 | SARS-CoV-2 B.1.351 pseudotyped particles | viral entry | Calu-3 | concentration not given, 48 h | – | inhibition | ~50%
CC[C@H](C)[C@H](NC(=O)[C@H](CCCNC(=N)N)NC(=O)[C@H](CCCNC(=N)N)NC(=O)[C@H](CC(C)C)NC(=O)[C@H](Cc1ccccc1)NC(=O)CNC(=O)CNC(=O)[C@@H](N)Cc1ccc(O)cc1)C(=O)N[C@@H](CCCNC(=N)N)C(=O)N1CCC[C@H]1C(=O)N[C@@H](CCCCN)C(=O)O | OPRK1 (Homo sapiens, UniProt P41145) | ligand displacement, radioligand | – | – | – | Ki | 0.09 nM
COCC(=O)N1CCc2cc(-c3csc(NC(=O)c4cc(OC)cc(OC)c4)n3)ccc21 | CHRNA1/CHRNG/CHRND (Homo sapiens, UniProt P02708+P07510+Q07001) | – | – | 10 µM | – | inhibition | -3%
O=c1c(O)c(-c2cc(O)c(O)c(O)c2)oc2cc(O)cc(O)c12 | Replicase polyprotein 1ab, 3C-like proteinase (rep, Middle East respiratory syndrome-related coronavirus, UniProt K9N7C7) | enzyme activity | – | 10 µM | – | inhibition | 5%

Repeated from above:
SMILES | target or system | assay | test system | setting | scale | quantity | value
CC[C@H](C)[C@H](NC(=O)[C@H](CCCNC(=N)N)NC(=O)[C@H](CCCNC(=N)N)NC(=O)[C@H](CC(C)C)NC(=O)[C@H](Cc1ccccc1)NC(=O)CNC(=O)CNC(=O)[C@@H](N)Cc1ccc(O)cc1)C(=O)N[C@@H](CCCNC(=N)N)C(=O)N1CCC[C@H]1C(=O)N[C@@H](CCCCN)C(=O)O | OPRK1 (Homo sapiens, UniProt P41145) | ligand displacement, radioligand | – | – | – | Ki | 0.09 nM
